Assay results gathered from unrelated publications.
Each numbered part is a random draw from the data of one study; scales do not carry over between parts.

Study 1
Target: Prothrombin, mature alpha-thrombin (F2, Homo sapiens, UniProt P00734)
Method: aptamer microarray, sandwich
Molecule type: DNA with 2'F-ANA
Sample: in vitro
Concentration: 200 nM
Setting: whole 15-mer aptamer, many near background
With: Cy3 exosite-II aptamer, 400 nM
Direction: higher = stronger binding
Strand: GGTTGGTGTGGTTGG
| Modification | mean fluorescence intensity |
| --- | --- |
| 2'F-ANA at 1 3 4 6 7 10 15 | 61.7 a.u. |
| 2'F-ANA at 2 3 4 5 6 7 10 11 12 14 15 | 62.6 a.u. |
| 2'F-ANA at 1 2 3 5 7 9 13 14 | 46.4 a.u. |
| 2'F-ANA at 3 4 7 10 11 | 319 a.u. |
| 2'F-ANA at 1 2 3 4 7 8 9 11 12 13 15 | 209 a.u. |
| 2'F-ANA at 1 2 3 4 5 6 7 8 9 10 11 13 14 15 | 57.8 a.u. |
| 2'F-ANA at 1 2 4 7 8 12 13 14 15 | 84.7 a.u. |
| 2'F-ANA at 3 8 9 10 11 12 13 14 15 | 330 a.u. |
| 2'F-ANA at 1 2 3 4 7 8 11 15 | 194 a.u. |
| 2'F-ANA at 1 3 4 7 8 10 13 14 15 | 53.9 a.u. |
| 2'F-ANA at 1 2 3 6 8 10 11 12 15 | 80.2 a.u. |
| 2'F-ANA at 6 8 11 12 13 15 | 598 a.u. |
| 2'F-ANA at 3 4 6 9 | 626 a.u. |
| 2'F-ANA at 1 2 4 5 9 12 13 14 15 | 48.1 a.u. |
| 2'F-ANA at 3 4 6 7 9 10 11 13 15 | 181 a.u. |
| 2'F-ANA at 3 5 8 10 12 13 | 63.2 a.u. |
| 2'F-ANA at 1 3 4 8 9 12 | 388 a.u. |
| 2'F-ANA at 6 7 8 11 13 15 | 434 a.u. |
| 2'F-ANA at 1 2 3 4 6 7 8 9 10 13 14 15 | 58 a.u. |

Study 2
Target: RNA binding protein fox-1 homolog 2, RRM domain, GST-SBP tag (RBFOX2, Homo sapiens, UniProt O43251-10, residues 100-194)
Method: RNA Bind-n-Seq
Molecule type: RNA
Sample: in vitro
Concentration: 365 nM
Setting: natural RNA segment, single round, ends assumed
Baseline: no-protein control
Direction: higher = stronger binding
All sequences stand within: GGGAGUUCUACAGUCCGACGAUC … UGGAAUUCUCGGGUGCCAA
Residues (chain): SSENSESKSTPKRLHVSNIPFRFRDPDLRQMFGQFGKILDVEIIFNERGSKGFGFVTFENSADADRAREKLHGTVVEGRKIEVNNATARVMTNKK
| Strand | RBNS enrichment (R) |
| --- | --- |
| GCAGCACGGAUAUAACACUAUGCAUUAAAAGCACUUUUUGUAAUAAGUUUAAUAUCCUAAAAGGAAUGCCAAUUAAGUUUUGUUAACUGUGUCAUCAACUUAUCCUAGUA | 0.893 |
| CUUGAGGUGAUAGUUGUUAAAAACAAUACCAGUAUUUGAUCCAGUUUCAUCUCAACUAUGUUAUACCUGGACAUUUUAGAUGUUUAUCAAAGGUCUUUUAUGGGGAAGAA | 0.3 |
| GCAGCCUGUGCAGGGUCUCUGUCCUCAGAGCUCCAGACACCAGCAUCCUACUCUCAAGGAUGAAGUCUCCAGCCUGUGGAGCCAGCCUAGCUCCUAACUGUCAGGCUGAC | 0.345 |
| GUUUUAAGAUUCUGUAAUAUAGUUCCACUGGGAAUUUUCCAUGCAACUUCGGAAGAUGCAGUUGUACGUGGCUAUUCCAUUCCUAAAGGCACAACAGUCAUUACAAAUCU | 0.472 |
| UUACUCCAGUGUGUCUUGGCUUACACAAUUUAACAGCUUUCUGAUUUUAUUCACAUACAGUGAUGAAUCUUGCAUUGCAAAUUCAAAGUCUAAGUUAACAGUCUCCUAAA | 0.335 |
| GUCUGGACUCAGCCACAAACUCUAAUAAGACCUGUACAUCUGAGAACCUUUCCCGUUACUGCGUUUUCACCACCUGUCUUCCCCAUGCUUUAUUUAUCUGUAUGAACACA | 0.497 |
| AUAGUUGAGCGCGUUCUUAGCAGUUGGCUUCAUGGACAACUCAUUAGUGUUUUGACUUUUCUUACCCAGCGUUAAUUGAAUUCUUGCUUUUAGACAACUUCCUUUUUGUA | 0.583 |
| ACAAAAGUCCAGCCAUUAUCAUCCUCCUGAGUUAUUUGAAAUGAUUUUUUUUGUACAUUUUGGCUGCAGUAUUGGUGGUAGAAUAUACUAUAAUAUGGAUCAUCUCUACU | 0.364 |
| UGUUUUUUGUGCAUAUAUUUCUGCUACCACAGAGAUUGUACUAUACAAAUAAAAAAAUAAAAACCCACCUCAAGCUGUCACCCUUGGAUGUGUCCUGAAUCUCAGGCAGG | 0.377 |
| AGAGGGCUGUCACAGGUGAAUGGUUUGGGGAACCCUUCUUGGCAGAGUUUUAGCUGCCUUACUGAACAUUGUCCCAACAGAAAGUUCCUAUCGUUCUCCUUCCUUCUUGG | 0.37 |
| AAAUUUGUUUCCUGGUGAGCACAGAAUCAGAACAAAGAACAAUAUCCCAAAGAGGCCCUGUGUCUACCAGGAGCUUCUUUUUCCAAAUGUAAUGGAUUAUGUGGAAUUGU | 0.792 |
| AUUAACCCAAGUGAACCAACCAAAGUCACCAGUUCAGAAGUGCUAAGCUAAUAGGAGUCUGACCCGAGGGCCUGCUGCUUCCUGGUUAAGUAUCUUUUGAGAUUCUAGAA | 0.329 |

Study 3
Target: RING finger protein unkempt homolog, zinc fingers 1-6, GST-SBP tag (UNK, Homo sapiens, UniProt Q9C0B0, residues 30-357)
Method: RNA Bind-n-Seq
Molecule type: RNA
Sample: in vitro
Concentration: not given
Setting: RNA with constant flanks, human-mouse chimeric sites, ends assumed
Baseline: input RNA pool
Direction: higher = stronger binding
All sequences stand within: GGGAGUUCUACAGUCCGACGAUC … CAACAGAGGAUUGAGCAUCA
Target sequence (chain): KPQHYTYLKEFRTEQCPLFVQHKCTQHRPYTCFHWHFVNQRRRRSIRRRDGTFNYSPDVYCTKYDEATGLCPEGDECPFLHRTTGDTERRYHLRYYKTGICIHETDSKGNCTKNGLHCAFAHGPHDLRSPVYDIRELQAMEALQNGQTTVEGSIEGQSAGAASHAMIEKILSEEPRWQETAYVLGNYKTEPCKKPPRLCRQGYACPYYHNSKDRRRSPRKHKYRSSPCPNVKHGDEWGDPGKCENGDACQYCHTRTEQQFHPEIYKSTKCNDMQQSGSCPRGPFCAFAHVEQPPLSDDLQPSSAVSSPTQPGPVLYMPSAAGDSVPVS
| Strand | bound/input enrichment [ratio] |
| --- | --- |
| UCGGAUGAGGUGCUGGGUCACUUUUCAUAUCCAGAUCCUUCACAGUGGACAGAUGAAGAACUGGGAAUCCCUCCUGAUGAUGAAGACUGACACUGUAAACUCUCUGGACGAGUAGGAGCA | 0.538 |
| AAAAUAGACUAUGGCGAGUACAUGGAUAAAAACAAUGUGAGGCGGCAAGCAACAACAAUCAUAGCUGAUAACAUUAUAUUUCUGAGUGACCAGACGAAAGAAAAGGCAUAGAACGGAUGA | 2.43 |
| UCCCAAAUCCAGCAGCUCCUUGAAAUAUUGAGACAAACACUCCACACACAGGGAAGGCAAUAGCUUUGUACAUUGGUUUACAUUUUUUCCCCCUGUGGAUUUUUCUAGAGGUCAUAGUGC | 0.717 |
| AUGGAACAUUUCGAUGCGUCACUCAGUACCUAUUUCAAGGCCUUCCUGGGCCCCCGAGAUACAAGAGUCAAAGGAUGGUUCCUCCUGGACAAUUAUAUCCCUACGUUUAUCUGCUCUGUU | 0.0627 |
| GAUAAGAAAAGCUUGUUGGAGACCCGCUUGCAUGUCACUGGUAGAGACCUGAGGUGUCAAAUAGCUGAAACUUUCGGACUUCAAGAAAAUUACAUCAAAAUUGUCAUAAAUAAGAAACAG | 0.437 |
| UCCUGGUGCGACAGCGUUGCAGGACGAUGUGAACAAAAACUCAAAGCGGACCCUCUAUUGUAGUUCUUGAUUCUCGAAAUGUGCUAUUAUUGUUUGUCUUUUUUUUUUUUUUUUUAAAGA | 1.19 |
| UGUGAACUGAAAGGUGUGAUCUAAAAACAAGAUGACUUUUCCUGGCACAUAUUUCAAAGCAAAGACUUUGUUGCCUGCUGCUUAUUGUCUAAUUUACAGGGAUAUUUAAUUUUGUCAGGU | 0.145 |
| UAAGUUAAGCUUUUAAUCUUUGUAAAUUCUUAACAUUUUUAUAUUGCCAUGUUUAUUUUGUUUGGGUGCUUUAUUAAAUUAAGUACAUAGCUAAGGUAAUGAACAUCUUUUUCAGUAAUU | 0.637 |
| AAAGAGAAACUAAAGCAACUAAUAGAGAAGAGGAUUGGCAAAGAGAAAUUUCAUAGAGAAACUAGGAUUAUUAGCAAACAUGAGUUAUAUUCCAGAGCGUCUCAGAAACCCCAGCCAAAC | 3.01 |
| CUUAAUGUUAAUAUUUUUGAAUAAAUGAAGCUAAAAUUUUGCUUUCUGGUACAACACGCAUUAAUAAAAGGUUAAGUUUUGUUUUCCACUGAAGUACUAUUUAACAUCUCAGAAAAAAAC | 0.246 |
| AUGGAACAUUUCGAUGCAUCACUUAGUACCUAUUUCAAGGCCUUCCUAGGCCCUCGAGAUACAAGAGUCAAAGGAUGGUUCCUCCUGGACAAUUACAUCCCUACGUUUGUCUGUUCUGUU | 0.187 |

Study 4
Target: Interferon regulatory factor 5, full length, phosphomimetic (IRF5, Homo sapiens, UniProt Q13568-2, residues 1-514, K96S/S451D/S453D/S456D/S462D)
Method: protein-binding microarray
Molecule type: double-stranded DNA, one strand shown
Sample: in vitro
Concentration: 250 nM
Setting: 60-bp whole probe
With: salmon DNA 0.4 mg/ml
Baseline: random background probes
Direction: higher = stronger binding
All sequences stand within: GCCTAGCAC … GTCTTGATTCGCTTGACGCTGCTG
| Strand | log fluorescence |
| --- | --- |
| GACGGAATCGACACTGGGGACGTGCTA | -0.159 z-score |
| GACGATTTCAGACTGGAGAAGTGCTAG | 0.0434 z-score |
| TTAGTTCTCCTTATCCTTTAGTGCTAG | 0.68 z-score |
| TTTGGTTTCGACTTTCGGTTAGTGCTA | 10.8 z-score |
| AGACATTCTTTCAGTTGGAAGTGCTAG | 2.85 z-score |
| GACGGACTCGGTATCGGGACGTGCTAG | 0.559 z-score |
| CTAGGTATCGGTATCGGTTAGTGCTAG | 9.16 z-score |
| TCAGGTTCTCTTTTATTACTGTGCTAG | 0.506 z-score |
| TTAGGTTTCGGGTAGCGGTTAGTGCTA | 8.54 z-score |
| GACAGACTGGACACTGGGGACGTGCTA | -0.77 z-score |
| TCATGTGTGCATCTATCACTGTGCTAG | 0.0841 z-score |
| TCAGATTTTGCTTTCATACTGTGCTAG | 2.7 z-score |
| GACGGTTTCGGTATCGGCACGTGCTAG | 9.58 z-score |
| GGCGGACTGGACTATCGGGACGTGCTA | 0.381 z-score |
| TCAACTCTAATATTGAGACTGTGCTAG | 0.296 z-score |
| TTAGGTTTCGCGTATCGGTTAGTGCTA | 5.29 z-score |
| ACAAGTTTTTATTTTCTGAAGTGCTAG | 1.67 z-score |
| TCAGATATGCGGTAAGGGACTGTGCTA | -0.0996 z-score |

A few entries again (study 3):
| Strand | bound/input enrichment [ratio] |
| --- | --- |
| AUGGAACAUUUCGAUGCGUCACUCAGUACCUAUUUCAAGGCCUUCCUGGGCCCCCGAGAUACAAGAGUCAAAGGAUGGUUCCUCCUGGACAAUUAUAUCCCUACGUUUAUCUGCUCUGUU | 0.0627 |
| GAUAAGAAAAGCUUGUUGGAGACCCGCUUGCAUGUCACUGGUAGAGACCUGAGGUGUCAAAUAGCUGAAACUUUCGGACUUCAAGAAAAUUACAUCAAAAUUGUCAUAAAUAAGAAACAG | 0.437 |
| UCCUGGUGCGACAGCGUUGCAGGACGAUGUGAACAAAAACUCAAAGCGGACCCUCUAUUGUAGUUCUUGAUUCUCGAAAUGUGCUAUUAUUGUUUGUCUUUUUUUUUUUUUUUUUAAAGA | 1.19 |
| UGUGAACUGAAAGGUGUGAUCUAAAAACAAGAUGACUUUUCCUGGCACAUAUUUCAAAGCAAAGACUUUGUUGCCUGCUGCUUAUUGUCUAAUUUACAGGGAUAUUUAAUUUUGUCAGGU | 0.145 |
| UAAGUUAAGCUUUUAAUCUUUGUAAAUUCUUAACAUUUUUAUAUUGCCAUGUUUAUUUUGUUUGGGUGCUUUAUUAAAUUAAGUACAUAGCUAAGGUAAUGAACAUCUUUUUCAGUAAUU | 0.637 |
